Results gathered from unrelated publications.
Each line is one published result; not all experiments were run side by side. ± gives the spread as reported.

For `CN1Cc2c(Cl)cc(Cl)cc2C(c2cccc(S(=O)(=O)NCCOCCOCCOCCNC(=O)C(O)C(O)C(=O)NCCOCCOCCOCCNS(=O)(=O)c3cccc(C4CN(C)Cc5c(Cl)cc(Cl)cc54)c3)c2)C1` (centres unmarked), “stool form score” read 2 (Sprague Dawley rats; oral, 3 mg/kg, 16 h; higher = more watery).
`COc1ccc2c(c1)c(CC(=O)OCC(=O)OC(C)(C)C)c(C)n2C(=O)c1ccc(Cl)cc1` — result for “latency of nociceptive response”: 14.3 ± 1.24 s (hot plate test; BALB/c mice; 50 mg/kg, 30 min).
The spreading cells of `CC(C)[C@H](NC(=O)CN)C(=O)N[C@@H](CCCCN)C(=O)NCC(=O)N[C@@H](CC(=O)O)C(=O)N[C@@H](CCCCN)C(=O)NCC(=O)N[C@@H](CC(N)=O)C(=O)N1CCC[C@H]1C(=O)NCC(=O)N[C@@H](Cc1c[nH]c2ccccc12)C(=O)N1CCC[C@H]1C(=O)NCC(=O)N[C@@H](C)C(=O)N1CCC[C@H]1C(=O)O` is reported as 20% (B104 neuroblastoma, rat; 100 µg/mL coating, peptide-coated plates).
For `C[N+](C)(CF)CC(=O)O`, platelet aggregation read “no effect” (human platelet-rich plasma; 20 µM, together with: ADP 2 µM).
Under “high residual platelet reactivity”, `CSCCNc1nc(SCCC(F)(F)F)nc2c1ncn2[C@@H]1O[C@H](COP(=O)(O)OP(=O)(O)C(Cl)(Cl)P(=O)(O)O)[C@@H](O)[C@H]1O` is recorded as 55% (ADP-induced platelet aggregation, light transmittance aggregometry; human patients, platelet-rich plasma; dose not given, 30 min, aggregation above 59%, together with: ADP 20 µM; reference: patients).
Under “histological score decrease”, `COC(=O)[C@H](CSSC(C)(C)[C@H](NC(=O)[C@H](CCC(=O)NC[C@H](O)[C@@H](O)[C@H](O)[C@H](O)CO)NC(=O)[C@H](CCC(=O)O)NC(=O)[C@H](CCC(=O)NC[C@H](O)[C@@H](O)[C@H](O)[C@H](O)CO)NC(=O)[C@H](CCC(=O)O)NC(=O)[C@H](CCC(=O)NC[C@H](O)[C@@H](O)[C@H](O)[C@H](O)CO)NC(=O)CC[C@H](NC(=O)c1ccc(NCc2cnc3nc(N)[nH]c(=O)c3n2)cc1)C(=O)O)C(=O)O)NC(=O)CC[C@H](NC(=O)c1ccc(NCc2cnc3nc(N)nc(N)c3n2)cc1)C(=O)O` is recorded as 87% (item: pannus formation; Lewis rat, adjuvant-induced arthritis; 500 nmol/kg twice weekly × 2; direction not given).
`Cc1cc2c(cc1C1(c3ncc(C(=O)O)cn3)CC1)C(C)(C)CCC2(C)C`: “log2 fold change” -0.083 (RNA sequencing, item: Ifit3 mRNA; rat, brain; dose not given, 24 h, single dose; reference: vehicle).
`CC/C=C\C/C=C\C/C=C\C/C=C\C/C=C\CCCCOC(CC)C(=O)O` (centres unmarked): hepatic diacylglycerols “decreased” (APOE*3Leiden.CETP mice, high-fat/cholesterol diet; dose not given, 20 weeks; reference: control).
`C=C(c1ncc(C(=O)O)cn1)c1cc2c(cc1C)C(C)(C)CCC2(C)C` — result for “log2 fold change”: 0.34 (RNA sequencing, item: Epha3 mRNA; rat, brain; dose not given, 24 h, single dose; reference: vehicle).
`CC(=O)N[C@@H](CC(N)=O)C(=O)NCC(=O)N[C@@H](C)C(=O)N[C@@H](C)C(N)=O` — result for “rate constant succinimide to β-Asp”: 5.21 h⁻¹ (1H NMR; sodium phosphate buffer 50 mM; pH 7.4, 55 °C).
For `Cc1nc(C)c(C=[N+]([O-])C(C)(C)C)nc1C`, “protein level increase” read 48.6% (Western blot, item: HO-1; mouse, MPTP model, substantia nigra cytosol; 90 mg/kg).
Under “contraction rate increase”, `Cc1cc(=O)[nH]c2ccc(OCCCC(=O)N3CCOCC3)cc12` is recorded as 23 ± 6% (rat, isolated spontaneously beating atria; 100 µM; reference: baseline).
Under “hepatic lipid levels”, `COc1cc2c(cc1OC)C(c1ccc(F)cc1F)N(CCCOc1ccc(CCC(=O)O)cc1)CC2` (centres unmarked) is recorded as “decreased” (item: triglyceride, total cholesterol, free fatty acids; diet-induced obese C57BL/6J mice; oral, 50 mg/kg, 38 days; reference: vehicle).
For `CSc1cc(C)[nH]c(=O)c1CN1CCc2c(Cl)c3c(c(C)c2C1=O)OC(C)(C1CCC(N(C)C)CC1)O3` (centres unmarked), the H3K27me3 reduction was 89% (mouse KARPAS-422 xenograft, tumour; oral, 25 mg/kg once daily, day 12).
Under “latency of nociceptive response”, `CCCOC(=O)Cc1c(C)n(C(=O)c2ccc(Cl)cc2)c2ccc(OC)cc12` is recorded as 10.4 ± 0.36 s (hot plate test; BALB/c mice; 75 mg/kg, 0 min).
Under “sleeping time reduction”, `CCn1cnc(C[C@H](NC(=O)c2nccnc2N)C(=O)N2CCC[C@H]2C(N)=O)c1` is recorded as 49.8% (Swiss albino mice; iv, 10 µmol/kg, together with: pentobarbital 50 mg/kg ip; reference: control).
`CSCC[C@@H]1NC(=O)[C@H](CCCCN)NC(=O)[C@H]([C@@H](C)O)NC(=O)[C@H](CCCCN)NC(=O)[C@H](CC(C)C)NC(=O)[C@H](CCCCN)NC(=O)[C@H](CCCNC(=N)N)NC(=O)[C@@H]2CSSC[C@@H]3NC(=O)[C@@H]4CCCN4C(=O)[C@H](C(C)C)NC(=O)[C@H](CCC(N)=O)NC(=O)[C@H](CCC(N)=O)NC(=O)CNC(=O)[C@H](CC(C)C)NC(=O)[C@@H]4CSSC[C@H](NC(=O)[C@H]([C@@H](C)O)NC(=O)[C@H](C)NC(=O)[C@H](CSSC[C@@H](C(=O)N[C@@H](CO)C(=O)N[C@@H](CCCNC(=N)N)C(=O)N[C@H](C(N)=O)[C@@H](C)O)NC(=O)[C@@H]5CCCN5C(=O)[C@H](CC(N)=O)NC1=O)NC(=O)[C@@H]1CCCN1C(=O)[C@H](CC(=O)O)NC(=O)[C@H](CSSC[C@H](NC(=O)[C@H](CCCNC(=N)N)NC(=O)[C@H](CCCNC(=N)N)NC(=O)[C@H](CCCCN)NC(=O)[C@@H](N)CCCCN)C(=O)N[C@@H](C(C)C)C(=O)N[C@@H](CCCNC(=N)N)C(=O)N[C@@H](CC(C)C)C(=O)N[C@@H](Cc1c[nH]cn1)C(=O)N[C@@H](CCC(=O)O)C(=O)N[C@@H](CO)C(=O)N4)NC3=O)C(=O)N[C@@H](Cc1ccc(O)cc1)C(=O)N[C@H]1CSSC[C@H](NC(=O)[C@H](Cc3ccccc3)NC(=O)[C@H](C)NC(=O)[C@H](CC(N)=O)NC(=O)[C@H](Cc3ccccc3)NC(=O)[C@H](Cc3ccccc3)NC(=O)[C@H](CCCNC(=N)N)NC1=O)C(=O)N[C@@H](Cc1ccc(O)cc1)C(=O)N2`: “body weight change” 41.1 ± 6.8 g (Long-Evans rat, male; intracerebroventricular, 1.0 nmol, 5 days).
For `CN(C)c1ccc2c(-c3cc(C(=O)N4CCN(CCCOc5ccc6nccc(C(=O)NCC(=O)N7CC(F)(F)C[C@H]7C#N)c6c5)CC4)ccc3C(=O)[O-])c3ccc(=[N+](C)C)cc-3oc2c1`, “macrophages among labelled immune cells” read 67% (flow cytometry; mouse B16-F10 tumour, tumour; dose not given).
`COc1ccc(C2CC(c3ccc(C)cc3)=Nc3ccccc3S2)cc1OC` (centres unmarked) gave a body weight of 179 ± 4.16 g (Wistar rat, STZ-induced diabetes; oral, 10 mg/kg once daily, day 21).
`CC[C@H](C)[C@@H]1NC(=O)[C@H](Cc2ccc(O)cc2)NC(=O)[C@@H](N)CSSC[C@@H](C(=O)N2CCC[C@H]2C(=O)N[C@@H](CCCCNC(=O)COCCOCCNC(=O)COCCOCCNC(=O)CC[C@H](NC(=O)CC[C@H](NC(=O)CCCCCCCCCCCCCCCCC(=O)O)C(=O)O)C(=O)O)C(=O)NCC(N)=O)NC(=O)[C@H](CC(N)=O)NC(=O)[C@H](CCC(N)=O)NC1=O` — result for “cumulative food intake”: 27 ± 1 g (C57BL/6 mice, diet-induced obese; subcutaneous, 2 µmol/kg daily, 14 days).
Under “urinary urea concentration”, `CCOC(=O)c1cc2c(N)c(C(=O)OC)sc2nc1C` is recorded as “decreased” (Sprague-Dawley rats; subcutaneous, 25, 50, 100 mg/kg; reference: vehicle).
`CCN(CC)C(=O)C1CCCN(C(=O)Nc2ccc3nc(-c4ccco4)c(-c4ccco4)nc3c2)C1` (centres unmarked) has an IC50 of 4.32 µM (cell proliferation, inhibitor, MTT; spleen cells, mouse; 72 h, together with: concanavalin A 5 µg/mL).
For `CCC1CC2C(C)=CC3C(=O)CCCC3C=CC(C)=CC2C(=O)O1` (centres unmarked), “soluble oligomeric Aβ reduction” read 17.3% (dot blot; 5XFAD transgenic mouse, hippocampus; oral, 30 mg/kg/day three times per week, 1 month, not significant; reference: vehicle).
The Ejaculatory latency of `Cc1cc(O)c(C=O)c2c1C(=O)Oc1c(CO)c(O)c3c(c1O2)C(O)OC3=O` (centres unmarked) is reported as 999 ± 94.2 s (copulatory behaviour test; rat, male, streptozotocin-induced diabetes; 5 mg/kg, day 63).
`O=C1NCC(c2cccc(C(F)(F)F)c2)C1C(=O)Nc1ccccc1F` (centres unmarked): herbicidal activity “active” (whole plants; concentration not given).
`Cc1sc(-c2ccc(C(F)(F)F)cc2)nc1-c1nn[nH]c1C#N` — result for “HbA1c change reduction”: 50.5% (ZDF rat; dose not given, 6 weeks, together with: sitagliptin 10 mg/kg/day; reference: vehicle).
For `O=C(NC1CCCCC1)C(c1ccncc1)N(C(=O)CCl)c1ccc(F)cc1` (racemic), “off-target molecular weight” read 38 kDa (competitive ABPP; MDA-MB-435 soluble proteome; 5 µM, together with: CA-Rh probe).
For `COc1c2c(cc3oc(CO)cc(=O)c13)O[C@H](C(C)(C)O)C2`, “hot plate latency” read 13.9 ± 3.63 s (analgesia; mouse; oral, 4 mg/kg, 0.5 h).
`C=C(c1ccc(C(=O)O)c(F)c1)c1cc2c(cc1C)C(C)(C)C=CC2(C)C`: “log2 fold change” -0.28 (RNA sequencing, item: Sycp2; rat, brain; dose not given, 24 h; reference: vehicle).
`O=C([O-])CN1CCN(CC(=O)[O-])CCN(CC(=O)NC[C@H]2CC[C@H](C(=O)N[C@H](Cc3cnc4ccccc4c3)C(=O)NCCCC[C@H](NC(=O)N[C@@H](CCC(=O)O)C(=O)O)C(=O)O)CC2)CCN(CC(=O)[O-])CC1.[64Cu+2]` — result for “cores discordant with pathology”: 12.9% (prostate cancer patients, biopsy cores; cut-off 66 CPM).
For `Cc1cnc(Nc2cc(C)c(C)c(C)c2)nc1Nc1ccc2oc(=O)[nH]c2c1`, STAT5b phosphorylation read “inhibited” (item: phospho-STAT5b; rat, OVA asthma model, whole lung homogenate; intratracheal, dose not given, 2 h after OVA challenge; reference: OVA vehicle).
With `COc1ccc(C2CC(c3ccc(C)cc3)=Nc3ccccc3S2)cc1` (centres unmarked) the body weight was 193 ± 4.18 g (Wistar rat, STZ-induced diabetes; oral, 20 mg/kg once daily, day 7).

A few entries again:
`Cc1sc(-c2ccc(C(F)(F)F)cc2)nc1-c1nn[nH]c1C#N` — result for “HbA1c change reduction”: 50.5% (ZDF rat; dose not given, 6 weeks, together with: sitagliptin 10 mg/kg/day; reference: vehicle).
`O=C1NCC(c2cccc(C(F)(F)F)c2)C1C(=O)Nc1ccccc1F` (centres unmarked): herbicidal activity “active” (whole plants; concentration not given).
`CC(=O)N[C@@H](CC(N)=O)C(=O)NCC(=O)N[C@@H](C)C(=O)N[C@@H](C)C(N)=O` — result for “rate constant succinimide to β-Asp”: 5.21 h⁻¹ (1H NMR; sodium phosphate buffer 50 mM; pH 7.4, 55 °C).
`CC[C@H](C)[C@@H]1NC(=O)[C@H](Cc2ccc(O)cc2)NC(=O)[C@@H](N)CSSC[C@@H](C(=O)N2CCC[C@H]2C(=O)N[C@@H](CCCCNC(=O)COCCOCCNC(=O)COCCOCCNC(=O)CC[C@H](NC(=O)CC[C@H](NC(=O)CCCCCCCCCCCCCCCCC(=O)O)C(=O)O)C(=O)O)C(=O)NCC(N)=O)NC(=O)[C@H](CC(N)=O)NC(=O)[C@H](CCC(N)=O)NC1=O` — result for “cumulative food intake”: 27 ± 1 g (C57BL/6 mice, diet-induced obese; subcutaneous, 2 µmol/kg daily, 14 days).
`C=C(c1ccc(C(=O)O)c(F)c1)c1cc2c(cc1C)C(C)(C)C=CC2(C)C`: “log2 fold change” -0.28 (RNA sequencing, item: Sycp2; rat, brain; dose not given, 24 h; reference: vehicle).
